Experimental data pooled from the literature.
Numbered parts are unrelated; each lists some results of a single study. Substitutions count along the parent as printed.

Set 1
Target: Sal-like protein 4, full length isoform A (SALL4, Homo sapiens, UniProt Q9UJQ4, residues 1-1053)
Chain of UniProt Q9UJQ4 (whole entry, looked up): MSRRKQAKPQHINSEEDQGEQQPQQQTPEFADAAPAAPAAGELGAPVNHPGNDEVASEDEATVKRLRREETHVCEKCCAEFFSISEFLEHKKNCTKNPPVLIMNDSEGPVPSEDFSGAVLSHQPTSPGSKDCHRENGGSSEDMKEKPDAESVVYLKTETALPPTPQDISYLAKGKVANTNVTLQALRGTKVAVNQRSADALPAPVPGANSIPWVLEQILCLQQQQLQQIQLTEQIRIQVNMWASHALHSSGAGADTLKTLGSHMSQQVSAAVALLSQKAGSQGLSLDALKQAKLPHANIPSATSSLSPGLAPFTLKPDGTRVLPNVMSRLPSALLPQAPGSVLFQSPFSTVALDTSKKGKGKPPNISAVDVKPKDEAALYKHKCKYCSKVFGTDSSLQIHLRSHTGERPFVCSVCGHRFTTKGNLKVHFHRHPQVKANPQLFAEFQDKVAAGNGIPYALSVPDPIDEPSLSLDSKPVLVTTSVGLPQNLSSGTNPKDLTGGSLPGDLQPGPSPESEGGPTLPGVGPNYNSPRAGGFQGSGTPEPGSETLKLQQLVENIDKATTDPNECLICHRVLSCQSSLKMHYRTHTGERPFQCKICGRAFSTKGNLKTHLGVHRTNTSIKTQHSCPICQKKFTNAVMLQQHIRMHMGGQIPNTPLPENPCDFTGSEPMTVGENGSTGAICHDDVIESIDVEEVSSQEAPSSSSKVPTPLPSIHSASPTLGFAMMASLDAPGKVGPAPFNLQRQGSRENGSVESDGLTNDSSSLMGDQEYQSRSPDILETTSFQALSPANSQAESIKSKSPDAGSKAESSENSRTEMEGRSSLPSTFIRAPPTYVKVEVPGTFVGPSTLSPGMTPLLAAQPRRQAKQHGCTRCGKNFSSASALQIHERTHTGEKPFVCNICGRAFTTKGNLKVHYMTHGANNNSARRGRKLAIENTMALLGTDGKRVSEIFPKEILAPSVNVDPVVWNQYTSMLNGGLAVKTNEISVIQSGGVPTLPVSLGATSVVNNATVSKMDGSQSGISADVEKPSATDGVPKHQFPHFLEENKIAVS
Technique: universal PBM
Form: double-stranded DNA, one strand shown
Matrix: in vitro
Tested at: 600 nM
Setting: 8-mer, flanks averaged, mean of replicates
Reading: higher = stronger binding
Endpoint: E-score
AGCAAAAC: 0.031
AGTCTATA: 0.244
AACGGAAC: -0.216
ATCAAGTA: 0.0992
GCTATGAA: 0.161
TAAAAGAA: 0.291
GGAATTGA: 0.166
CGCGGTTC: -0.276
AATCAGCA: 0.0788
ACGCTGCG: -0.25
ATAGGCGG: 0.0653
ACACACGT: 0.0336
CCGTATAC: 0.133
ATTAATAC: 0.392
CGAATGGA: -0.128
AGAATTGG: 0.0786
ACGGCGCA: -0.271
CCTTGTGC: -0.149
AGCGGAGC: -0.239
CCACGGAA: -0.107
AACAGGAG: -0.00449
AACTCTGA: 0.0343
GCACACTA: -0.0733
TCCTCCCA: 0.0301
AGTACGGG: -0.11

Set 2
Target: CCNE1, cyclin fold, Cln2 fusion (human)
Technique: yeast growth competition, sequencing
Matrix: yeast
Setting: strong parent motif
Reference: not given
Reading: higher = stronger binding
Endpoint: normalised enrichment score
Starting sequence: E2F1 docking peptide (human); PPVKRRLDFETDH
R5G: 0.233
K4S: 5.07
R6F: 3.3
F9W: 3.45
F9A: 0.189
P2I: 5.57
R6Q: 5.94
L7F: 0.282
V3P: 3.17
E10F: 6.14
D8V: 4.98
E10Y: 5.69
F9R: 0.274
L7Q: 0.357
D8E: 6.29
D12E: 6.29
K4D: 0.788

Set 3
Target: ABI1, truncated, D143A, DHFR fusion (Arabidopsis thaliana)
Technique: DHFR PCA, deep sequencing
Matrix: yeast
Setting: methotrexate growth selection, single substitutions
Added: (+)-ABA 710 µM
Reference: wild-type fitted maximum
Reading: higher = stronger binding
Endpoint: relative binding score
Starting sequence: PYL1, truncated, DHFR fusion (Arabidopsis thaliana); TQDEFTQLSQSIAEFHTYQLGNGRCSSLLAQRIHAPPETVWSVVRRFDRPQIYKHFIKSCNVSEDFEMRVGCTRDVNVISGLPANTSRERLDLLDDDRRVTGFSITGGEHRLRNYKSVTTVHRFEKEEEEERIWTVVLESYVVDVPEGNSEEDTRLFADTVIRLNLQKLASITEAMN; partner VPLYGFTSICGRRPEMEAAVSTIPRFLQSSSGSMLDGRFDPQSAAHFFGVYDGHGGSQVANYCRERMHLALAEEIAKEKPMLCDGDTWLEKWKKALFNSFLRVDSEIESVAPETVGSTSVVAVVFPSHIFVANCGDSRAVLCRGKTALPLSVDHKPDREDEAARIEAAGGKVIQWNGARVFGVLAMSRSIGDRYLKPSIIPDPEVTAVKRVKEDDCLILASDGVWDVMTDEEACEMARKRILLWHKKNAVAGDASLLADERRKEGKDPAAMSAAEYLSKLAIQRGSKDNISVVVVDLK
Y141L: -0.238%
H110W: 28.6%
T106N: 98.1%
R46S: 95.9%
I52N: 93.3%
T160Q: 95.2%
E125A: 105%
E4T: 104%
I79R: 99.3%
S59A: 101%
S117Q: 81.1%
E152C: 98.2%
D65K: 105%
R69Y: 94.8%
E139A: 87%
V44Q: 12.9%
F15L: 96.1%
C72T: 94.2%
T160N: 94.9%
L28D: 17.3%

Set 4
Target: Interferon regulatory factor 7, full length, phosphomimetic (IRF7, Homo sapiens, UniProt Q92985, residues 1-503, S471D/S472D/S475D/S476D/S477D/S483D/S484D/S487D)
Technique: protein-binding microarray
Form: double-stranded DNA, one strand shown
Matrix: in vitro
Tested at: 2200 nM top
Setting: 60-bp whole probe
Added: salmon DNA 0.4 mg/ml
Reference: random background probes
Reading: higher = stronger binding
Endpoint: fitted relative affinity
Shared flanks, not repeated: GCCTAGCAC … GTCTTGATTCGCTTGACGCTGCTG
Residues (chain): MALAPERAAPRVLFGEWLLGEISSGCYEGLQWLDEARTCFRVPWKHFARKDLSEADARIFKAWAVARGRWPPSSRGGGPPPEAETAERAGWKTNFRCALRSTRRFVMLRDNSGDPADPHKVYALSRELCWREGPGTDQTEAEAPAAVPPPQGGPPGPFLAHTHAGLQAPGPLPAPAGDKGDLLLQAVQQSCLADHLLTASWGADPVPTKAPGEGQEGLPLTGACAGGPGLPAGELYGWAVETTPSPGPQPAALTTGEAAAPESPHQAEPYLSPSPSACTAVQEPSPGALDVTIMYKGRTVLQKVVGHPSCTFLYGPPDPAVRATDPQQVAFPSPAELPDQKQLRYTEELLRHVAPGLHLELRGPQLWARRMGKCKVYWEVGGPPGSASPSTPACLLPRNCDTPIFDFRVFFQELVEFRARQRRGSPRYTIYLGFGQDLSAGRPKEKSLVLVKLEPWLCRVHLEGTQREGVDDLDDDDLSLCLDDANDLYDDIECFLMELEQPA
GACGCACTGGGGTATCGGGACGTGCTA: -0.214 z-score
TTAGAACTGGGGTATAGATTAGTGCTA: -0.151 z-score
TCACATTTTGGTTTTCTACTGTGCTAG: 3 z-score
CTAGAACTGAGTATCGATTAGTGCTAG: -0.209 z-score
TTAGACTTCGGGACTGGATTAGTGCTA: -0.571 z-score
GACGAATTCAGTCTCGAGACGTGCTAG: 0.371 z-score
TTAAGACTGCTACTGCTTTAGTGCTAG: -0.445 z-score
GAAAGAATCACAACTAGGAAGGTGCTA: -0.575 z-score
TCATCTTTCCTTCTTGAACTGTGCTAG: 3.03 z-score
GACGGGCTGGGGTTTCGGGACGTGCTA: 0.142 z-score
TTAGGTATCGGCATCGGTTAGTGCTAG: 0.257 z-score
CCCCCAATCTCTCTTCACATGTGCTAG: 0.186 z-score
GACGATATCAGTCTCGCGACGTGCTAG: 0.311 z-score
GACGGTATCCATTTCCTGACGTGCTAG: 1.38 z-score
GACGGTTACGACTATCGGGACGTGCTA: -0.283 z-score
TCACGTCTCTATCAAAAACTGTGCTAG: 0.933 z-score
CACGGACTGCTACTGCTGACGTGCTAG: -0.223 z-score
TCAGGTTTCCTTTCCCTTTAGTGCTAG: 5.36 z-score
TTAGGCTTCCTACTGCTTTAGTGCTAG: 0.528 z-score
GGTACAAACTTGTAATTATAGTGCTAG: -0.277 z-score
TCAGCTTTCCTGATGACACTGTGCTAG: 1.83 z-score
TTAGGTTTCCTTTCCCTTGAGTGCTAG: 4.02 z-score
GACGGTTACGGGTATCGGGACGTGCTA: -0.151 z-score

Set 5
Target: RNA binding protein fox-1 homolog 2, RRM domain, GST-SBP tag (RBFOX2, Homo sapiens, UniProt O43251-10, residues 100-194)
Technique: RNA Bind-n-Seq
Form: RNA
Matrix: in vitro
Tested at: 365 nM
Setting: natural RNA segment, single round, ends assumed
Reference: no-protein control
Reading: higher = stronger binding
Endpoint: RBNS enrichment (R)
Shared flanks, not repeated: GGGAGUUCUACAGUCCGACGAUC … UGGAAUUCUCGGGUGCCAA
Target sequence (chain): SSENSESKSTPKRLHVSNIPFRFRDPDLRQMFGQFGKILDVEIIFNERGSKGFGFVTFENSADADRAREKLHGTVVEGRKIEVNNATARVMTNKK
GCUAUAAAAUGGUGAAAGCUUCCUUCUAAACUGCCCCAAGUGUUGAAGUCUUCACUUUAUUUUGUUGUUUUGUUUUGUUUUUCUGUUUUGUUUGCAAAAUGGUAAGGGGG: 1.04
GCCAUUGGCUUUAGGUCUCUGGACCAGAGACAGGAGAGGCUUUGCGACUCCAAAGCUCUAGGCCAGAUGUUACAGUUGUUCGCAGCAGGCUCGAUUCUGCCCUCUCUUUU: 0.233
GUGCGUGGGAAGACAUGCCCCAGGCCCAGCCCUGACCACAUGUGUUGCUAAUUCCUGUCUGGUUCCUCUCUGGCAGAGCUUGGGAGGCACAAGAGAUCCUUUUCUCUUUC: 0.345
GGACCCCCUGGGAAAGACAUGCAGUGUAGAUAAUGACUUUAGUAGCUCUCCAAUGAGAGCCUGACUGGCUUCUAGAGCAGGCUGUCACAGAAGGGGAGGUAGGGUCGACU: 0.474
GCGUUUCUGAUGGAAACAGUUUGGAUUGUAUAAUAACGCCAAGCCCAGUUGUAGUCGUUUGAGUGCAGUAAUGAAAUCUGAAUCUAAAAUAAAAACAAGAUUAUUUUUGU: 0.399
UGCAGUACAACUGGAAGCCAAAACAAGGUGGAAGAUGUCCUGAAUUAAGAUGUUUUCACCACAUUGUAUUACAGAGACAGCCAAUAAAUCUACUAUUUGAUUUCAAUAUG: 0.22
AACAUAAAAGAAAAGAUCUGAUUCCCGCAGGUUCUCUUCUGACCUACACACACACACACUAAAAUAACAUUUAAAAAUAUGUGCCAAAUUAUAUUUGUUCGGGUGCCACC: 0.825
UUGCUUUCUUCUCUUGCCUCUGAGAACAUCAGCCUGGAGGCCUGUCAGGCUACGGGCUGCCUGAGUGGAAACCUGGGAUGGUGGAGAAUUCCCAAGCCACAGCCCUUUUG: 0.341
UGCUGUUAAAUAUGCAAAUAGUUUAAUCUUUUUUUCUUUUGUUGUUUGAUGGGAAAUUGUGACAUUCCAAGUUGACUUUUUUUUAUUAUCUGAAUUAAAAUUUGAAACUC: 0.618
AGACCUAUUUUUGUUGUCUUGUUCCCUAAAGGAGUUUUCUAACACUUGAAUAAAUUGGGAUACUAAACAAGCCACCAGGGGGCGUGUGAGGUCUGAGUCCUGAGCUGCUG: 1.61
GAAGCCCUUUCUAGGAGGUUGUGUCGGCCCCAGCAGGGGCUCUCAGCUUCUCCCCAUCCAGAAACCCGAUGUGUGAGUCCCUCAUCACACACGCACACACACACACACAC: 0.822
CAGAGAACUGGCCUAAGCUCUAGAUUAGCCAAGAAAGCUGGAAAACAGAGCGCCAGGCUUCACUCUGCAGAGAGAAAGUGCUCUGUCCCUGUAGCGUCUGAUUCCACUUA: 0.232

Set 6
Target: Prothrombin, mature alpha-thrombin (F2, Homo sapiens, UniProt P00734)
Technique: aptamer microarray, sandwich
Form: DNA with 2'F-ANA
Matrix: in vitro
Tested at: 200 nM
Setting: whole 15-mer aptamer, many near background
Added: Cy3 exosite-II aptamer, 400 nM
Reading: higher = stronger binding
Endpoint: mean fluorescence intensity
Oligonucleotide: GGTTGGTGTGGTTGG
2'F-ANA at 2 4 5 6 8 9 10 12 14 15: 47.6 a.u.
2'F-ANA at 2 4 6 9 11 12 13 14 15: 78.1 a.u.
2'F-ANA at 1 5 8 9 11 12 13 14 15: 66 a.u.
2'F-ANA at 2 3 4 8 9 10 12 14 15: 180 a.u.
2'F-ANA at 1 6 9 10 11 13 15: 56 a.u.
2'F-ANA at 3 4 5 6 7 10 13: 72.7 a.u.
2'F-ANA at 3 4 5 6 7 8 9 10 11 14 15: 52.7 a.u.
2'F-ANA at 1 2 3 4 5 6 7 8 9 11 15: 78.6 a.u.
2'F-ANA at 6 10 13: 137 a.u.
2'F-ANA at 4 6 10 11 12 13 14: 55 a.u.
2'F-ANA at 2 3 4 5 6 7 10 11 14: 48.1 a.u.
2'F-ANA at 1 3 9 12 13 14 15: 105 a.u.
2'F-ANA at 4 6 7 8 10 11 13: 64.2 a.u.
2'F-ANA at 2 6 8 9 10 11 12: 120 a.u.
2'F-ANA at 1 2 3 4 7 10 14: 51.5 a.u.
2'F-ANA at 1 8 9 10 13 14 15: 56.7 a.u.
2'F-ANA at 1 4 8 11 13 15: 202 a.u.
2'F-ANA at 1 2 5 6 13 15: 50.8 a.u.
2'F-ANA at 3 4 5 6 15: 113 a.u.
2'F-ANA at 1 3 4 6 9 10 11 12 14 15: 56.1 a.u.
2'F-ANA at 1 2 6 7 10 11 14 15: 50.5 a.u.
2'F-ANA at 4 6 7 11 12 14 15: 90.6 a.u.
2'F-ANA at 1 3 4 6 8 10 11 13 15: 56.6 a.u.
